Assay results pooled from the literature.
Every numbered part comes from another study and shows a few of its results, in no order. Substitutions count along the parent as printed.

Series 1
Target: ABI1, truncated, D143A, DHFR fusion (Arabidopsis thaliana)
Technique: DHFR PCA, deep sequencing
Medium: yeast
Setting: methotrexate growth selection, single substitutions
Added: (+)-ABA 58 µM
Baseline: wild-type fitted maximum
Reading: higher = stronger binding
Starting sequence: PYL1, truncated, DHFR fusion (Arabidopsis thaliana); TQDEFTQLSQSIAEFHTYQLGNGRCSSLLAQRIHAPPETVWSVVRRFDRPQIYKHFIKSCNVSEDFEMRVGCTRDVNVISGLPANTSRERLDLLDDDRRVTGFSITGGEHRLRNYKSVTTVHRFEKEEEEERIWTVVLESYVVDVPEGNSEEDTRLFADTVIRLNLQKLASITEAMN; partner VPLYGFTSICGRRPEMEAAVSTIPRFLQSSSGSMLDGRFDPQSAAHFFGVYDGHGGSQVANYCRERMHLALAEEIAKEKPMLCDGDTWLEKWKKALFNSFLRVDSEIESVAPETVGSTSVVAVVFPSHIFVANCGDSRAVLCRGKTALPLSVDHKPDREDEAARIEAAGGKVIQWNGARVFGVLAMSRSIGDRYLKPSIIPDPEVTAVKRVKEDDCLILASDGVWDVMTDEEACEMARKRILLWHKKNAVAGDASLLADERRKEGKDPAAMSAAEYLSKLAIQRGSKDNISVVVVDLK
Substitution | relative binding score [%]
G102A | 76.2
I162W | 6.96
L82W | 32.9

Series 2
Target: CCND1, cyclin fold, Cln2 fusion (human)
Technique: yeast growth competition, sequencing
Medium: yeast
Setting: weak parent motif
Baseline: not given
Reading: higher = stronger binding
Starting sequence: HASPIN docking peptide (human); ASLRSVLFGLMNS; partner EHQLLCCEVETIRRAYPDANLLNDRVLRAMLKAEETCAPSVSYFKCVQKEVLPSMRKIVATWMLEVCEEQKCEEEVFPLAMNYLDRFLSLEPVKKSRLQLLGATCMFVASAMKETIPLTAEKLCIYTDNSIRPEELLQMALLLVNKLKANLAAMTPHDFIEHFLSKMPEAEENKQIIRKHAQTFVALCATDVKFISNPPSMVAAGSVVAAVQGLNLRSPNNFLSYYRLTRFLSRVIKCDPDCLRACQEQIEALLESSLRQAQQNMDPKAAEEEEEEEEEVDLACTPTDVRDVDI
Substitution | normalised enrichment score
ASLRSVLFGLMAS [N12A] | 1.06
ASLASVLFGLMNS [R4A] | -0.581
ASLRSVLFGLMNA [S13A] | 0.271
ASLRSVLAGLMNS [F8A] | 0.279
ASLRSVLFGAMNS [L10A] | 0.698
ASLRAVLFGLMNS [S5A] | 0.675

Series 3
Target: RING finger protein unkempt homolog, zinc fingers 1-6, GST-SBP tag (UNK, Homo sapiens, UniProt Q9C0B0, residues 30-357)
Chain of UniProt Q9C0B0 (30-357, looked up): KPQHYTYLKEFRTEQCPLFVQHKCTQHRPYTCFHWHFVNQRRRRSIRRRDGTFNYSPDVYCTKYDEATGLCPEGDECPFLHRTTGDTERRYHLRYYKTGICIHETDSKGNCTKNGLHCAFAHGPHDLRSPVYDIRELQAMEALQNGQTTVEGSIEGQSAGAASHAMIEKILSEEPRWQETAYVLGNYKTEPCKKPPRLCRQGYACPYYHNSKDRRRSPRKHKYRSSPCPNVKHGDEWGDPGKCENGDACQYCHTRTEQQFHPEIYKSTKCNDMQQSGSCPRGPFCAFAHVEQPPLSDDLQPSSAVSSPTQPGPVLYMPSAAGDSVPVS
Technique: RNA Bind-n-Seq
Molecule type: RNA
Medium: in vitro
Tested at: not given
Setting: RNA with constant flanks, human-mouse chimeric sites, ends assumed
Baseline: input RNA pool
Reading: higher = stronger binding
Shared flanks, not repeated: GGGAGUUCUACAGUCCGACGAUC … CAACAGAGGAUUGAGCAUCA
Strand | bound/input enrichment [ratio]
UCCCUGUUGCUGAAUAAAUGGCUUGUAAAGAAGUUUUUCCAAGCUGUAACCCAUGCUUCCCUUAGAGUUGCUGCAAAAUGUUCUUCCUGAUAUUGAUUUUAUUUGUUAACUGAAGGUCUC | 0.554
GCUCCUCCCCGCUCUGCAGCCUGGGGACACUGGGCUGGGACCAGAAUCCAGCUUUCUUUUAAAACUCUCAGUGUAACUGUAUCCCGUUUUUUUCUUUUUUUUUUUUAUAGUGUAUUUUUU | 39.7
CAGCCUCAGAGCCCUGACUUCCUGGAUAUUACCAACCCUAAAGCGGUAUUAGAAAAUGCACUUAGGAACUUCGCCUGUCUGACGACUGGAGAUGUGAUUGCUAUCAACUACAAUGAGAAG | 0.601
ACACAAUAUGAGACCAACAGCAUGGACUUCAAAGUUGGGGCGGAUGGGACAGUCUUCGCCACCCGGGAGCUGCAGGUCCCCUCCGAGCAGGUGGCCUUCACGGUGACUGCAUGGGACAGC | 0.396
CUGGCCUGGCCCUCCCCAGGGGCCUCCUUUCGUAUAGUCACUGCUUCUGCAUCAGAUACUUUCAGCUGCAACUCCCUACUGGGUGGGGCACCCAUUUGAGGCAGGGUUUGGUGCCCCCCU | 0.325
GUUCGGCUCUGGGAUCAUGCCACAAUGACAGAAGUGAAAUCUCUAAAUUUUAAUAUGUCUGUUAGCAGCAUGGAGUAUAUUCCUGAAGGAGAGAUUUUGGUUAUAACUUAUGGACGAUCU | 0.466
ACUCUUGACUCUUUCCAUCCUCUUCCUUUCCCUCUUGAUCUUCAAGGCCAUGAAUCCCAAAAUAACAGUCUUAGUGGCUAGCACCCAAACAGAGGUGGGUGCCAUCCACCCCAGUGUCUC | 0.583

Mixed results
Molecule | target | test | system | setting | how to read | quantity | result
PhoQ, residues 284 288 289 292 302 303 SLANIV | PhoP, residues 12 14 15 18 19 IQSYL (Escherichia coli, UniProt P23836) | Sort-seq, item: YFP reporter | E. coli | PhoQ-PhoP variant library, added: 10 µM Mg2+ | baseline: high Mg2+ state, higher = stronger signaling | fold induction | 45.9
